Measured values collected from several papers.
Numbered parts are unrelated; each lists some results of a single study.
UniProt P37173, sequence (whole entry, looked up): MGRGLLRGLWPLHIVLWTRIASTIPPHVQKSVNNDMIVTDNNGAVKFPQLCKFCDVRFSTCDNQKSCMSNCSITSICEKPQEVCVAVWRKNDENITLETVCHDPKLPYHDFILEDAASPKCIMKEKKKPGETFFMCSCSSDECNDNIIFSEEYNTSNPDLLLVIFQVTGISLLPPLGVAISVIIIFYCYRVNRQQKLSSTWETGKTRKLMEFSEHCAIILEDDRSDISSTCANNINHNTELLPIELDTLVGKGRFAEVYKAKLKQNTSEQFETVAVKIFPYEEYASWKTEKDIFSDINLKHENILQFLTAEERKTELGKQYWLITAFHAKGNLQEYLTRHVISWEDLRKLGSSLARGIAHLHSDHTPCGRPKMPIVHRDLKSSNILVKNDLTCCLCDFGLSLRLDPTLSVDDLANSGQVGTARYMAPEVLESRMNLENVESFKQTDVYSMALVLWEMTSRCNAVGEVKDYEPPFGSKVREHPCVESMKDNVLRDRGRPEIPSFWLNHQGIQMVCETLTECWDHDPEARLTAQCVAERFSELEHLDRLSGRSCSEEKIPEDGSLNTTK
UniProt P42336, sequence (whole entry, unmodified, looked up): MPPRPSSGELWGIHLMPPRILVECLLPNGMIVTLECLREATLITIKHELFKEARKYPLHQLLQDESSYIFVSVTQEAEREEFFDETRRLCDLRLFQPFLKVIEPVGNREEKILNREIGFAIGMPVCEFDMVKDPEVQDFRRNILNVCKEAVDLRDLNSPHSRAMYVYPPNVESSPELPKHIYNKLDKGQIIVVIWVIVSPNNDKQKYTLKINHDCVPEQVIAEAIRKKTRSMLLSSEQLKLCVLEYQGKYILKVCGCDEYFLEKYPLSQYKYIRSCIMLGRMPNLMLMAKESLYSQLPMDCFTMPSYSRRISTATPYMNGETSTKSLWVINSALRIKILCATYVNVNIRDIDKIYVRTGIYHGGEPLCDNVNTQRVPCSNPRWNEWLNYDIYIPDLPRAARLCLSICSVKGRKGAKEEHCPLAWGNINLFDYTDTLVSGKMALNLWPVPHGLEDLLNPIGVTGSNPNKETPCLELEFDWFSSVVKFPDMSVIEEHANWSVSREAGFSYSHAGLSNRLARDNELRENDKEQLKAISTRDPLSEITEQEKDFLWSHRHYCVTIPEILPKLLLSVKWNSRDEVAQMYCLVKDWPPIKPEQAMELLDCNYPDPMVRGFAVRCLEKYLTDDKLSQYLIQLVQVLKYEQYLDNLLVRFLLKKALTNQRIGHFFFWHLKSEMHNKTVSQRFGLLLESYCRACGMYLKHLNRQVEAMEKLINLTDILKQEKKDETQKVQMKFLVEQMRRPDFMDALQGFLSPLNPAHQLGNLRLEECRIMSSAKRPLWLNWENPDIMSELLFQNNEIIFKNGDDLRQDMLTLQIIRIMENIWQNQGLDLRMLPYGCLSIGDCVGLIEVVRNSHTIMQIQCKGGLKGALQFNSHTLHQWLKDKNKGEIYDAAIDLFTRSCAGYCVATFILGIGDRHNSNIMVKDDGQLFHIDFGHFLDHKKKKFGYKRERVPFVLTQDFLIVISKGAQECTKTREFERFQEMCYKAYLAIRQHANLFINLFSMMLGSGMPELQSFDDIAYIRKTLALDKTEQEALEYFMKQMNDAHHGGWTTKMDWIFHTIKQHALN
UniProt P35626, sequence (whole entry, looked up): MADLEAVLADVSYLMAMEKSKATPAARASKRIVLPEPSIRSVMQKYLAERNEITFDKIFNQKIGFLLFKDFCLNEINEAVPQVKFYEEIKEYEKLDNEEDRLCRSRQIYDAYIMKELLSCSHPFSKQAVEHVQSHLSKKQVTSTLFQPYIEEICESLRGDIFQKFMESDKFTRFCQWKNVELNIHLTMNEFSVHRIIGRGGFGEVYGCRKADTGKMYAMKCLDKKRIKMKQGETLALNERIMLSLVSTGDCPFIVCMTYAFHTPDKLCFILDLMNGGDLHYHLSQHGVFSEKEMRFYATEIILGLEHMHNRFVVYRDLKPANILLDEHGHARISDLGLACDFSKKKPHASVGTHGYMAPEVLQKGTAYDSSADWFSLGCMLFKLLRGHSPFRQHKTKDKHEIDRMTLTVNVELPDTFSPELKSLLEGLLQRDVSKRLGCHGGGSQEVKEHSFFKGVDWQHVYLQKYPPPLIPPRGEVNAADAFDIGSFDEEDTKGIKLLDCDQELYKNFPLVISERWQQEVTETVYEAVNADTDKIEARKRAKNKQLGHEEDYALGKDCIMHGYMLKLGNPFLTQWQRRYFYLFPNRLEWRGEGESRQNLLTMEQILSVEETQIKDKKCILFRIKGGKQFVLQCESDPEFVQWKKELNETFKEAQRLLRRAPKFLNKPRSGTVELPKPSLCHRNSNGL
UniProt Q9UHD2, sequence (whole entry, looked up): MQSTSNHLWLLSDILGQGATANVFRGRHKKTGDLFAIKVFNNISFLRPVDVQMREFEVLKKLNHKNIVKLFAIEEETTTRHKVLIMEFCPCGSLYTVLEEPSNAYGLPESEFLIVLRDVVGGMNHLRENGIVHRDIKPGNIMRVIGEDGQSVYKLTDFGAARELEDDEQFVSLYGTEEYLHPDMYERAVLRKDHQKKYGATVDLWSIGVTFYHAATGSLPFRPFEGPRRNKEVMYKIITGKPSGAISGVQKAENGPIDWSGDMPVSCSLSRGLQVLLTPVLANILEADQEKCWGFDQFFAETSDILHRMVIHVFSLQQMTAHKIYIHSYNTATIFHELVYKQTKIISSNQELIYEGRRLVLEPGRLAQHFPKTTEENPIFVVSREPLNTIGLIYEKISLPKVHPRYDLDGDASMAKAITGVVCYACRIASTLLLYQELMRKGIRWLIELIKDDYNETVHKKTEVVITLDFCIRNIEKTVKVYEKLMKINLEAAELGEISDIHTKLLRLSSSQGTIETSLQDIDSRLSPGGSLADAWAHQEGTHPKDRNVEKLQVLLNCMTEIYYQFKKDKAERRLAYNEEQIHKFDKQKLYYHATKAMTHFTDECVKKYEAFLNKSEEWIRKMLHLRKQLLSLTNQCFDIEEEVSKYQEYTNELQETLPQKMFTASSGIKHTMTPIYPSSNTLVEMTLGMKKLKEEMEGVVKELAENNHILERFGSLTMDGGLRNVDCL
UniProt Q13557, sequence (whole entry, looked up): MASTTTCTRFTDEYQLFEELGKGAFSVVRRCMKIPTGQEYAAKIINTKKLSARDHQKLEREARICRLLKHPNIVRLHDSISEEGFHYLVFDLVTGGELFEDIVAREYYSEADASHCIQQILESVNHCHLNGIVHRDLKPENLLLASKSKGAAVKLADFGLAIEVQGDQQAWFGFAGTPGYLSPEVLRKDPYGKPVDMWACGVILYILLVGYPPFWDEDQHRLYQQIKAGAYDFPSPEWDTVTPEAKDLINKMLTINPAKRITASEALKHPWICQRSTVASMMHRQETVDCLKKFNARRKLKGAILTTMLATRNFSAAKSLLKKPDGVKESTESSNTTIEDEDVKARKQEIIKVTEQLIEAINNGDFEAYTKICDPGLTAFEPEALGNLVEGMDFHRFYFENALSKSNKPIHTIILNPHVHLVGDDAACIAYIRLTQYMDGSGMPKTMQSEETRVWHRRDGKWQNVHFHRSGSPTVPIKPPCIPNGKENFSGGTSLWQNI
UniProt P05771, sequence (whole entry, looked up): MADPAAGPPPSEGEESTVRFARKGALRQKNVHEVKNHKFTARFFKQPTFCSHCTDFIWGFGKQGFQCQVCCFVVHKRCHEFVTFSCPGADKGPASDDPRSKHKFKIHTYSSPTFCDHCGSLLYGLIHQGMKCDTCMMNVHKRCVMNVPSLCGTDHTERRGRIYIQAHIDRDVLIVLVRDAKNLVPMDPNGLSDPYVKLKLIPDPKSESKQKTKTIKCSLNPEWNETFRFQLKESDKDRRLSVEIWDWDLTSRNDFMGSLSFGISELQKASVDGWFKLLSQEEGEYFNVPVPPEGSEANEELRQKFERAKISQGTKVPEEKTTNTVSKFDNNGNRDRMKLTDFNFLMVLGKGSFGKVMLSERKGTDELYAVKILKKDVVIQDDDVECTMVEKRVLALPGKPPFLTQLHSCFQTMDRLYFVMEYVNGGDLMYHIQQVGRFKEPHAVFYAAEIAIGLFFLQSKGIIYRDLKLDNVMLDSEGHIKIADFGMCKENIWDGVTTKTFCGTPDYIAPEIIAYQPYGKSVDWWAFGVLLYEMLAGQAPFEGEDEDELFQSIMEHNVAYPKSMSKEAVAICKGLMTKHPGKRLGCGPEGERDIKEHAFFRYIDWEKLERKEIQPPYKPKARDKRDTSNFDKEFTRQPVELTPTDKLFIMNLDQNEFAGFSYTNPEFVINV
UniProt P11802, sequence (whole entry, looked up): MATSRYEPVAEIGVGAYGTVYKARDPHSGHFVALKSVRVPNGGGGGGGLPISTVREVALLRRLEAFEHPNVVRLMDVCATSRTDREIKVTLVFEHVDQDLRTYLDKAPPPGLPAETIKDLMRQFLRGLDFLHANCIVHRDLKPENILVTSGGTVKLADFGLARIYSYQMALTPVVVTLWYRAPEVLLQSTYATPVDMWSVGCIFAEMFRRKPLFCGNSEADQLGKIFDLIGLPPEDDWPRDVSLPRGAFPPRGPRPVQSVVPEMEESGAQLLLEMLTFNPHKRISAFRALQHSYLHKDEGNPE
UniProt Q00535, sequence (whole entry, looked up): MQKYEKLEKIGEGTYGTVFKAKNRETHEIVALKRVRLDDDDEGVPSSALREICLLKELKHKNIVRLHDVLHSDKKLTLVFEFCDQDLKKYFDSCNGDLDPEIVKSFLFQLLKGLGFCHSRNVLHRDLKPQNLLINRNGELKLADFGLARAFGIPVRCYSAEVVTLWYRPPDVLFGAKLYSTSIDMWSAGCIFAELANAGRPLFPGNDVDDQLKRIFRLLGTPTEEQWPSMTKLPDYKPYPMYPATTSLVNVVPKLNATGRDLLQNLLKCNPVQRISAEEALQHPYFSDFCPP

Study 1 — effect on: enzyme activity; mode: inhibitor; concentration: 0.5 µM; reference: control; endpoint: remaining activity
SMILES: O=c1c(-c2ccc(F)cc2)c(-c2ccncc2)[nH]n1-c1ccc(Cl)cc1
target = DAPK2 (Homo sapiens, UniProt Q9UIK4); value = 104%
target = CAMKK2 (Homo sapiens, UniProt Q96RR4); value = 83%
target = Cyclin-dependent kinase 4, with cyclin D1 (CDK4, Homo sapiens, UniProt P11802); value = 102%
target = MAPK9 (Homo sapiens, UniProt P45984); value = 6.07%
target = DAPK1 (Homo sapiens, UniProt P53355); value = 84.5%
target = STK39 (Homo sapiens, UniProt Q9UEW8); value = 128%
target = TGFBR2 (Homo sapiens, UniProt P37173); value = 97.7%
target = STK10 (Homo sapiens, UniProt O94804); value = 81.9%
target = TGFBR1 (Homo sapiens, UniProt P36897); value = 101%
target = CHEK2 (Homo sapiens, UniProt O96017); value = 91.4%
target = Cyclin-dependent kinase 5, with p25 (CDK5, Homo sapiens, UniProt Q00535); value = 76.3%
target = IKBKB (Homo sapiens, UniProt O14920); value = 102%
target = cGMP-dependent protein kinase 1, isoform beta (PRKG1, Homo sapiens, UniProt Q13976); value = 106%
target = CAMK2D (Homo sapiens, UniProt Q13557); value = 95.6%
target = IKBKE (Homo sapiens, UniProt Q14164); value = 98.3%
target = GRK3 (Homo sapiens, UniProt P35626); value = 95%
target = OXSR1 (Homo sapiens, UniProt O95747); value = 83.3%
target = NEK2 (Homo sapiens, UniProt P51955); value = 85.4%
target = PRKACA (Homo sapiens, UniProt P17612); value = 90.7%
target = Protein kinase C beta type, isoform beta-I (PRKCB, Homo sapiens, UniProt P05771); value = 84.7%
target = STK11 (Homo sapiens, UniProt Q15831); value = 98.8%
target = Tyrosine-protein kinase Lyn, isoform B (LYN, Homo sapiens, UniProt P07948); value = 99.7%

Study 2 — species: human; medium: microsomes or S9; concentration: 2 µM; time: 0.5 h; endpoint: remaining compound
Structure (SMILES) = COc1ccc(S(=O)(=O)N(C)c2ccc(C(=O)Nc3ccccc3-c3ccccc3)cc2)cc1; value = 75.2%
Structure (SMILES) = CCc1nnc(NCCc2cncn2C)c(C#N)c1CC; value = 99.9%
Structure (SMILES) = O=c1c2cc3c(=O)n(-c4cc(Cl)cc(Cl)c4)ccc3nc2ccn1CCCO; value = 98%
Structure (SMILES) = COCCN(C)S(=O)(=O)c1cc2c(cc1Oc1ccc(Cl)cc1)Oc1ccc(C)cc1NC2=O; value = 0.464%
Structure (SMILES) = CCC(C)C1Nc2ccc(C(=O)NCC(C)CN(CC)CC)cc2NC1=O (centres unmarked); value = 90%
Structure (SMILES) = O=C(C1CC(=O)N(C2CCCC2)C1)N1CCC(c2nnc3n2CCNC3)CC1 (centres unmarked); value = 72.1%
Structure (SMILES) = Ic1ccc(-n2ccnc2)cc1; value = > 99%
Structure (SMILES) = CC(C)n1ncc2c1NC(=O)CC21C(=O)N(C)c2cc(Cl)cc(Cl)c21 (centres unmarked); value = > 99.9%
Structure (SMILES) = Nc1cc(C(=O)OCCC2CCOC2=O)cnc1Cl (centres unmarked); value = 2.77%
Structure (SMILES) = CC(C)Cc1ccc(C(C)C(=O)Nc2ccc(O)cc2C(=O)O)cc1 (centres unmarked); value = 2.8%
Structure (SMILES) = CN1N=C(c2ccc(-n3cncn3)cc2)CC1c1cnn(C)c1 (centres unmarked); value = 96.9%

Study 3 — technique: competition with immobilised ligand; concentration: 1 µM; endpoint: remaining binding
Compound: CCc1ccccc1C(=O)Nc1n[nH]c2c(C)c(F)c(C3C(C#N)=C(C)N(C)C(C)=C3C#N)cc12
target = CAMKK1 (Homo sapiens, UniProt Q8N5S9); effect on = cell-free assay; value = 100%
target = CLK3 (Homo sapiens, UniProt P49761); effect on = cell-free assay; value = 100%
target = GRK3 (Homo sapiens, UniProt P35626); effect on = cell-free assay; value = 100%
target = PHKG1 (Homo sapiens, UniProt Q16816); effect on = cell-free assay; value = 44%
target = PIK3CA (Homo sapiens, UniProt P42336); effect on = cell-free assay; value = 100%
target = TSSK1B (Homo sapiens, UniProt Q9BXA7); effect on = cell-free assay; value = 95%
target = PIK3C2G (Homo sapiens, UniProt O75747); effect on = binding; value = 95%
target = PAK3 (Homo sapiens, UniProt O75914); effect on = cell-free assay; value = 86%
target = PIK3CA (Homo sapiens, UniProt P42336, C420R); effect on = cell-free assay; value = 100%
target = IRAK1 (Homo sapiens, UniProt P51617); effect on = cell-free assay; value = 100%
target = NUAK2 (Homo sapiens, UniProt Q9H093); effect on = cell-free assay; value = 40%
target = TBK1 (Homo sapiens, UniProt Q9UHD2); effect on = cell-free assay; value = 77%
target = COQ8B (Homo sapiens, UniProt Q96D53); effect on = cell-free assay; value = 96%
target = PRKAA2 (Homo sapiens, UniProt P54646); effect on = cell-free assay; value = 0%
target = Ribosomal protein S6 kinase alpha-5, N-terminal kinase domain (RPS6KA5, Homo sapiens, UniProt O75582); effect on = cell-free assay; value = 1%
target = EPHB4 (Homo sapiens, UniProt P54760); effect on = cell-free assay; value = 51%
target = MAPK15 (Homo sapiens, UniProt Q8TD08); effect on = cell-free assay; value = 81%
target = SIK3 (Homo sapiens, UniProt Q9Y2K2); effect on = cell-free assay; value = 74%
target = Tyrosine-protein kinase JAK1, JH1 (JAK1, Homo sapiens, UniProt P23458); effect on = cell-free assay; value = 97%
target = CASK (Homo sapiens, UniProt O14936); effect on = cell-free assay; value = 81%
target = HUNK (Homo sapiens, UniProt P57058); effect on = cell-free assay; value = 100%
target = NEK1 (Homo sapiens, UniProt Q96PY6); effect on = cell-free assay; value = 100%
target = MAPK12 (Homo sapiens, UniProt P53778); effect on = cell-free assay; value = 76%
target = PRKD1 (Homo sapiens, UniProt Q15139); effect on = cell-free assay; value = 100%
target = TGFBR2 (Homo sapiens, UniProt P37173); effect on = cell-free assay; value = 82%

Single results of other studies
Structure (SMILES) = Cc1ccc(C(=O)Nc2ccc(S(=O)(=O)[O-])c3cc(S(=O)(=O)[O-])cc(S(=O)(=O)[O-])c23)cc1NC(=O)c1cccc(NC(=O)Nc2cccc(C(=O)Nc3cc(C(=O)Nc4ccc(S(=O)(=O)[O-])c5cc(S(=O)(=O)[O-])cc(S(=O)(=O)[O-])c45)ccc3C)c2)c1.[Na+].[Na+].[Na+].[Na+].[Na+].[Na+]; target = DNA polymerase theta, ATPase domain (POLQ, Homo sapiens, UniProt O75417); test = ATPase activity, inhibitor, ADP-Glo luminescence; setting = 77 µM, mean of duplicates; endpoint = remaining activity; value = 6.56%
